Results collected from several papers.
Each numbered part is a random draw from the data of one study; scales do not carry over between parts. Changes are numbered by the printed parent chain.

Sample 1 — technique: RNAcompete; form: RNA; medium: in vitro; concentration: 20 nM; notes: 7-mer, probes averaged, single round; reference: mean of 7-mers; direction: higher = stronger binding
Target: PABPC1L2, full length, GST fusion (mouse, UniProt A0ABA7IW68)
Residues (chain): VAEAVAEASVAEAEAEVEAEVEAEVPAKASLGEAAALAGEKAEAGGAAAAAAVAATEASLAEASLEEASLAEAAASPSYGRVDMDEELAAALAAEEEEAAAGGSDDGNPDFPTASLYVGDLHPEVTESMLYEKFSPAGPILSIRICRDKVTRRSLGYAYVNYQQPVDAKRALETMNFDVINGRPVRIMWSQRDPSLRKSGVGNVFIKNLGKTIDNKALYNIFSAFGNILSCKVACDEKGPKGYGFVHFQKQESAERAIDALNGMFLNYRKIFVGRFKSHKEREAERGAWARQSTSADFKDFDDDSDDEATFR
Strand	7-mer Z-score
GUACGCG	-0.0953
AACUUAC	0.0551
UCGUAGA	-0.238
AAUAGUA	0.258
AUUAGGA	0.195

Sample 2 — technique: protein binding microarray; form: double-stranded DNA, one strand shown; medium: in vitro; concentration: not given; reference: not given; direction: higher = stronger binding
Target: Histone acetyltransferase KAT6A, winged helix 2, GST fusion (KAT6A, Homo sapiens, UniProt Q92794, residues 85-181)
Notes: 8-mer, flanks averaged, mean of 2 arrays, mostly near background
Construct (chain): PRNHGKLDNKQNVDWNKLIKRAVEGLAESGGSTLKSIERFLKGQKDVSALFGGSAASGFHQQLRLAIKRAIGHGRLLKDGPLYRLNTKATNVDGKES
Strand	E-score
GTGCAAAC	0.0484
CCTACGCG	-0.0167
ATGCAATA	-0.0455
CCATGTAC	-0.18

Other studies, line by line — CCNE2: CCNE2, cyclin fold, Cln2 fusion (human)
P1: PKN2 docking peptide (human); VSAVRKLDFSDTM; partner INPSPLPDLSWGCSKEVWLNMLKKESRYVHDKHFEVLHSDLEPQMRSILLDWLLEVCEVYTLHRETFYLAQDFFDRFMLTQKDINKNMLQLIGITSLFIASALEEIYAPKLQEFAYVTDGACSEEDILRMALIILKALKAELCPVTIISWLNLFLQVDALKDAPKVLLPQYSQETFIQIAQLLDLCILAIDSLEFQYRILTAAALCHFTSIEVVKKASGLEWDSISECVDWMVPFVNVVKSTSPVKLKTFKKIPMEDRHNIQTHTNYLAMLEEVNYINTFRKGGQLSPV
Molecule	target	assay	test system	conditions	how to read	quantity	value
P1 D11E	CCNE2	yeast growth competition, sequencing	yeast	strong parent motif	reference: not given, higher = stronger binding	normalised enrichment score	4.43
PhoQ, residues 284 288 289 292 302 303 NLMGRA	PhoP, residues 12 14 15 18 19 NFCKL (Escherichia coli, UniProt P23836)	Sort-seq, item: YFP reporter	E. coli	PhoQ-PhoP variant library, with: 10 µM Mg2+	reference: high Mg2+ state, higher = stronger signaling	fold induction	16.2
P1 F9P	CCNE2	yeast growth competition, sequencing	yeast	strong parent motif	reference: not given, higher = stronger binding	normalised enrichment score	0.312

Some of these lines once more (sample 1):
Strand	7-mer Z-score
AUUAGGA	0.195
